Experimental data collected from several papers.
Parts stem from different laboratories: compare values within a part only. Positions count from the first letter of the parent shown.

Study 1
Target: Histone acetyltransferase KAT6A, both winged helices, GST fusion (KAT6A, Homo sapiens, UniProt Q92794, residues 1-181)
Method: protein binding microarray
Form: double-stranded DNA, one strand shown
Medium: in vitro
Tested at: not given
Setting: 8-mer, flanks averaged, mean of 2 arrays, mostly near background
Baseline: not given
Reading: higher = stronger binding
Target sequence (chain): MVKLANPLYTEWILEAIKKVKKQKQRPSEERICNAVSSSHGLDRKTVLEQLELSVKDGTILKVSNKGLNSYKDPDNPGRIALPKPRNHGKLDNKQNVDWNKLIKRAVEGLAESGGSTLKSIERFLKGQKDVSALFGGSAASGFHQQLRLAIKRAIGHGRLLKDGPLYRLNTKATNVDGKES
| Sequence | E-score |
| --- | --- |
| ACTCTTAG | -0.175 |
| CCGGGCTC | 0.0588 |
| ATCGCCGA | 0.334 |
| AGAGCGCG | 0.289 |
| ACCGTGCT | 0.0431 |
| AGGCCAAC | -0.141 |
| ACATTGCC | 0.0422 |
| AATTTGGC | 0.0103 |
| CTACTGAG | -0.215 |
| CAAAAAAG | -0.0454 |
| AAGAGTTG | -0.145 |
| CCACAGCG | 0.105 |
| GACCCAAC | -0.16 |
| CCATAGGG | -0.0897 |
| GCATCGGA | 0.0992 |
| ACCGGCCG | 0.318 |
| TGCCTCCA | -0.218 |
| GCGTCTGA | 0.0709 |
| ATACACAG | -0.00809 |
| AGACCACC | -0.107 |
| CGGTCCAC | 0.105 |
| CCGGGAGC | 0.22 |
| GCACCGAA | 0.0502 |
| GGAGGCAC | -0.00237 |
| AGATTCCG | 0.173 |

Study 2
Target: CCNE1, cyclin fold, Cln2 fusion (human)
Method: yeast growth competition, sequencing
Medium: yeast
Setting: strong parent motif
Baseline: not given
Reading: higher = stronger binding
Starting sequence: SCAPER docking peptide (human); SNARRSLNFGGST
| Change | normalised enrichment score |
| --- | --- |
| S12Q | 0.504 |
| S12D | 1.81 |
| S6D | 0.211 |
| A3Q | -0.515 |
| G11C | 0.916 |
| R5G | -0.169 |
| F9G | -0.591 |
| N2M | 0.169 |
| G10M | 0.951 |
| G10A | 0.912 |
| A3K | 0.106 |

Study 3
Target: Interferon regulatory factor 5, full length, phosphomimetic (IRF5, Homo sapiens, UniProt Q13568-2, residues 1-514, K96S/S451D/S453D/S456D/S462D)
Method: protein-binding microarray
Form: double-stranded DNA, one strand shown
Medium: in vitro
Tested at: 250 nM
Setting: 60-bp whole probe
With: salmon DNA 0.4 mg/ml
Baseline: random background probes
Reading: higher = stronger binding
All sequences stand within: GCCTAGCAC … GTCTTGATTCGCTTGACGCTGCTG
| Sequence | log fluorescence [z-score] |
| --- | --- |
| CCTGGCTCCATGGAATTTTTGTGCTAG | -0.651 |
| TTAGGACTGGGGACTGGGTGAGTGCTA | -0.529 |
| GACGGACTGGGTATCGGGCCGTGCTAG | 0.0758 |
| CCGAAAATGCCCTTTTGGTGAGTGCTA | 2.9 |
| TTAGGACTTGGTATCGGTTAGTGCTAG | 6.95 |
| TTTGGTTTCTGGTTTATTGAGTGCTAG | 3.97 |
| TTAGCACTGAGTATCGATTAGTGCTAG | 5.85 |
| TTAGGTATCGGTCTGGGTTAGTGCTAG | 7.09 |
| TTACATTCCCCATTGTGTTGGTGCTAG | 0.246 |
| GATGGTTTCGACACTGGGGACGTGCTA | 5.24 |
| TTAAGTATCGGTATCGGTTAGTGCTAG | 10.5 |
| TTGGGTCTCCTTCTCCTTTAGTGCTAG | -0.314 |
| TTGTTTTTCATTATTGTCTCGTGCTAG | 2.34 |
| GACGATTTCAGCCTGGAGACGTGCTAG | 0.416 |
| TCATTTATAAATTATCTTACTGTGCTA | 1.42 |
| GACGAACTGACACTGGAGACGTGCTAG | -0.227 |
| TCACCTCTGTAAGTCAGACTGTGCTAG | -0.0166 |
| AACGGACTGGACTTTCGGGACGTGCTA | 4.55 |
| GACGGTTTCCGACTGGGGACGTGCTAG | 0.303 |

Study 4
Target: Fragile X messenger ribonucleoprotein 1, C-terminal low-complexity region (Fmr1, Mus musculus, UniProt P35922)
Method: RNA Bind-n-Seq
Form: RNA
Medium: in vitro
Tested at: 200 nM
Setting: whole 134-nt RNA, ends assumed
With: 150 mM KCl
Baseline: input library
Reading: higher = stronger binding
All sequences stand within: GGGAGUUCUACAGUCCGACGAUC … UGGAAUUCUCGGGUGUCAAGG
| Sequence | log2 enrichment |
| --- | --- |
| ACCAUGCAGGUGGGCAUCUAUGGGAAGUGGGGCAAGGGGGGGAUAGGGAGGGGGGUAACACUUUGGGAACAGGUGGUCCCAGGUCGUUUC | 0.843 |
| UCCUGUGCUACACAUCGUAUGUACCGAAUCGGGGAAAAAGGGGAAAAAGGGAAAAAGGGAAAGUAUUAUGUUACGCCGUUCGGAUCUGCA | 0.0494 |
| UAACUUUAGAGGAGGAUCUGAUGGAUAUGGCAGUGGACGUGGAUUUGGGGAUGGCUAUAAUGGGUAUGGAGGAUGACCUGGAGGUGGCAA | 0.186 |
| CAAGUCCUGUGCUACACAUCGUAUGUACCGAAUCGGGAAAGGGAAAGGGAAAGGGGAAAGUAUUAUGUUACGCCGUUCGGAUCUGCACUU | 0.51 |
| GGUGGAAUCCAUAGAGCUCCCCAUGGACAACAAGACCAAUAAGAGGCGUGGGUUCUGCUUUAUUACCUUUAAGGAAGAAGAACCAGUGAA | -0.123 |
| GCAAGAAGUAAAAACAAAUGGAAAUGCUUCGGAUAGUGGCAGGGGUGGGGGUUGCUAAGGAAAGGGUGGGAUGGGAGUGGGUAAAGAGUU | 0.26 |
| UGGAACAGCAGCUGCCACUCAGGCGUAAUUCCCACCUAGAGGAGAGUUUCACAUCCACCGAAGAAUCUUCCGAAGAAAAUGUCAACUUUU | 0.444 |
| UGGCCCUGGUGCCAUGCGGGGAGGAAGAGGUGGCCUCAUGGAUCGUGGUGGUCCCGGUGGAAUGUUCAGAGGUGGCCGUGGUGGAGACAG | 0.217 |
| AAGUCCUGUGCUACACAUCGUAUGUACCGAAUCGGCCCCGGCCCCGGGGCCCCGGGAAAGUAUUAUGUUACGCCGUUCGGAUCUGCACUU | -1.11 |

Study 5
Target: ABI1, truncated, D143A, DHFR fusion (Arabidopsis thaliana)
Method: DHFR PCA, deep sequencing
Medium: yeast
Setting: methotrexate growth selection, single substitutions
With: (+)-ABA 200 µM
Baseline: wild-type fitted maximum
Reading: higher = stronger binding
Starting sequence: PYL1, truncated, DHFR fusion (Arabidopsis thaliana); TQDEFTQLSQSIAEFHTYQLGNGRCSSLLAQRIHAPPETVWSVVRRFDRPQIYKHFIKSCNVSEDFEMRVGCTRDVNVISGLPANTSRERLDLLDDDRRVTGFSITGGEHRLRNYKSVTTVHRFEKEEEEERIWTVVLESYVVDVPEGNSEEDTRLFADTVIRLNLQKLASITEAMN
| Change | relative binding score [%] |
| --- | --- |
| N77T | 106 |
| Q167K | 104 |
| I52V | 106 |
| E128T | 109 |
| N22V | 99 |
| E125L | 101 |
| W41R | -0.182 |
| W41M | 9.85 |
| K58F | 80.2 |
| R155A | 74.7 |
| S140N | -7.74 |

A few entries again (study 2):
| Change | normalised enrichment score |
| --- | --- |
| S6D | 0.211 |
| A3Q | -0.515 |
| G11C | 0.916 |
| R5G | -0.169 |
| F9G | -0.591 |
